Published values of several laboratories.
Protocols differ between the studies behind these lines. Values joined by “and” are separate records of one study, mostly repeats; a detail may differ. Numbers after ± are the reported error.

| Structure (SMILES) | target or system | assay | system | setting | scale | measurement | value |
| --- | --- | --- | --- | --- | --- | --- | --- |
| NS(=O)(=O)c1ccc(Cc2c(C3CCCC3)nn(-c3nc(C(=O)O)cs3)c2-c2ccccc2)cc1 | HEK293T | lactate production | – | 1 h | – | IC50 | > 50000 nM |
| CN1CCN(c2cc(C(=O)Nc3ccc4c(c3)-c3c(c(C(N)=O)nn3-c3ccc(F)cc3)CC4)c(Cl)cn2)CC1 | human PBMC | TNF-α production | – | 2 h preincubation | – | IC50 | 40 to 70 nM |
| CC[C@H](N)c1nc2cc(-c3ccnc(F)c3)sc2c(=O)[nH]1 | COLO 205 | cell growth, MTT | – | – | – | IC50 | 103 ± 3.07 nM |
| COc1cc2nccc(Oc3ccc(NC(=S)NC4CCC4)c(Cl)c3)c2cc1C(N)=O | HUVEC | cell proliferation, luminescent viability | – | 72 h, added: 20 ng/mL VEGF-A | – | IC50 | 20.7 nM |
| CCN1c2ccccc2C(=O)N(C)c2cnc(Nc3ccc(C(=O)N4CCC(N5CCN(C)CC5)CC4)cc3OC)nc21 | 797 NUT midline carcinoma cells | viability, CellTiter-Glo | – | 3 days | – | IC50 | 2620 ± 540 nM |
| COc1cc([C@@H]2c3cc4c(cc3[C@@H](OC(C)C)[C@H]3COC(=O)[C@H]23)OCO4)cc(OC)c1OC | Leishmania infantum | iRFP fluorescence | mouse splenocytes infected, amastigote, iRFP, ex vivo splenic explant | 48 h | – | EC50 | 79100 ± 5300 nM |
| Cc1ccc(-n2nc3c(=O)[nH]nc(N)c3c2-c2oc3ccc(C)cc3c2C)cc1 | SNU-16 (FGFR2 amplified) | cell proliferation | – | – | – | IC50 | > 1000 nM |
| COc1cc2ncc(-c3cccc(NC4CCNC4)n3)n2cc1-c1cnn(C)c1 (racemic) | MOLM-14 FLT3 D835Y | cell growth | – | – | – | IC50 | 30 nM |
| CCn1nccc1N=CC1=Cc2cc3c(cc2[C@@H](c2cc(OC)c(OC)c(OC)c2)[C@@H]1C(=O)OC)OCO3 | Leishmania | – | mouse splenocytes | – | baseline: CC50 over amastigote EC50 | selectivity index | 0.3 |
| CN1c2ccc(F)cc2C(=O)N2CCc3c([nH]c4ccc(OCc5cccc(C(=O)NO)c5)cc34)C21 (centres unmarked) | HCT-116 | cell viability, CCK-8 | – | – | – | IC50 | > 20000 nM |
| O=C(O)CCCN1C(=O)c2ccc3c4c(ccc(c24)C1=O)C(=O)N(CCCC(=O)O)C3=O | PC-12 | neurite outgrowth | – | 72 h, added: 500 pM NGF | – | IC50 | > 100000 nM |
| Nc1c(Cl)ccc2cccnc12 | HUVEC | cell proliferation, [3H]thymidine incorporation | – | – | – | IC50 | 1660 ± 60 nM |
| Cc1ccccc1OCCCSCc1nc2ccccc2[nH]1 | SW620-GFP cells | colony formation, clonogenic stemness | – | – | – | IC50 | 12800 nM |
| C=CC(=O)N1CCC(c2cc(Nc3cc4n(n3)CCOC4)c3ncnn3c2)C1 (single isomer, unassigned) | TMD8 | calcium flux, FLIPR | – | 2 h preincubation, added: anti-IgM | – | IC50 | > 1000 nM |
| CC[C@@H](C)[C@H](N)C(=O)N1Cc2ccc(F)cc2C1 | K562 | cell viability, CellTiter-Glo | – | – | – | IC50 | > 60000 nM |
| CCOc1cc(C(C)(C)C)ccc1C1=N[C@H](c2ccc(Cl)cc2)[C@H](c2ccc(Cl)cc2)N1C(=O)N1CCN(CC(=O)NCCOCCOCCOCCNC(=O)CN2CCN(C(=O)N3C(c4ccc(C(C)(C)C)cc4OCC)=N[C@H](c4ccc(Cl)cc4)[C@@H]3c3ccc(Cl)cc3)CC2=O)C(=O)C1 | A549 | cell growth, CCK-8 | – | – | – | IC50 | 11000 ± 1400 nM |
| CC1(C#Cc2cc(-c3nn(-c4nc(C(=O)O)cs4)c(CC4CC4)c3Cc3ccc(S(N)(=O)=O)c(F)c3)ccc2F)COC1 | HEK293T | lactate production | – | 1 h | – | IC50 | 1800 nM |
| CC(=NN=c1[nH]c2cc(F)c(F)cc2n1C)c1ccc(F)cn1 | MCF7 | viability, MTT | – | 72 h | – | IC50 | 7.5 nM and 7 nM |
| C[C@H](N)c1nc2cc(-c3ccncc3F)sc2c(=O)[nH]1 | COLO 205 | cell growth, MTT | – | – | – | IC50 | 515 ± 15.4 nM |
| COc1ccc(CC(=O)OCc2ccc(-n3cccn3)cc2)cc1F | HS27 | cytotoxicity | – | – | – | IC50 | > 100000 nM |
